# Results pooled from the literature.
# Numbered parts are unrelated; each lists some results of a single study. Substitutions count along the parent as printed.

# Block 1 — technique: protein-binding microarray; form: double-stranded DNA, one strand shown; matrix: in vitro; concentration: 940 nM top; setting: 60-bp whole probe; together with: salmon DNA 0.4 mg/ml; reference: random background probes; reading: higher = stronger binding; shared flanks, not repeated: GCCTAGCAC … GTCTTGATTCGCTTGACGCTGCTG
# Target: Interferon regulatory factor 5, full length, phosphomimetic (IRF5, Homo sapiens, UniProt Q13568-2, residues 1-514, S451D/S453D/S456D/S462D)
Oligonucleotide,fitted relative affinity
TTAGGGATCCTTTTCCTTTAGTGCTAG,-0.191 z-score
TTAGATATCAGTCTCGATTTGTGCTAG,2.76 z-score
GACGGACTGCACTTTCGGGACGTGCTA,0.778 z-score
GTGAGTCCCACATCTCTGTCCGTGCTA,0.584 z-score
TCTCTCCCTTTATCTCTTTTGTGCTAG,3.77 z-score
CCAGGAAAAGGGATTCAGTTGTGCTAG,0.119 z-score
TTAGGATTCGGTCTCGGTTAGTGCTAG,3.74 z-score
GGCGGACTGGACTTTCGGGACGTGCTA,0.414 z-score

# Block 2 — target: CCND3, cyclin fold, Cln2 fusion (human); technique: yeast growth competition, sequencing; matrix: yeast; setting: weak parent motif; reference: not given; reading: higher = stronger binding
# Parent: viral docking peptide; TSVRRALFTGGSD; partner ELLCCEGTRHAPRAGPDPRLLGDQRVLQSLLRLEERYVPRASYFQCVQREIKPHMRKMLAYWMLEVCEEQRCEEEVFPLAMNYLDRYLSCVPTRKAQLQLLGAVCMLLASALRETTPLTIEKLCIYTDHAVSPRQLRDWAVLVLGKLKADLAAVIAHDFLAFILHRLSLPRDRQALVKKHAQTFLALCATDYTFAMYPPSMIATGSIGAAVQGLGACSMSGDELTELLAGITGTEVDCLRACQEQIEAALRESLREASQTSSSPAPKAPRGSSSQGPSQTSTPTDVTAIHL
Substitution,normalised enrichment score
TSVRVALFTGGSD [R5V],0.0336
TSVRRALYTGGSD [F8Y],-0.12
TSVRRALFTRGSD [G10R],0.344
TSVLRALFTGGSD [R4L],-0.0843
TVVRRALFTGGSD [S2V],-0.151

# Block 3 — target: Sox, HMG box (Pigoraptor chileana); technique: Spec-seq; form: double-stranded DNA, one strand shown; matrix: in vitro; concentration: not given; setting: whole probe, mean of replicates; reference: not given; reading: lower = stronger binding; shared flanks, not repeated: GAGTCGTCTCGTCAGCAC … CCGTAGAGCACTCAGGTC
# Residues (chain): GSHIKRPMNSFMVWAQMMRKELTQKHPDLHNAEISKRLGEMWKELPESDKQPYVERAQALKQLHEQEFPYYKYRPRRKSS
Oligonucleotide,relative binding energy
AGGTGTT,0.0793 ln ratio
ATTCGTT,0.33 ln ratio
CTAAGTT,0.673 ln ratio
CATTGAC,-0.42 ln ratio
TGCGGTT,0.543 ln ratio
CAAGGTT,1.06 ln ratio
CATCTTG,0.323 ln ratio
GGGTGTT,0.963 ln ratio

# Block 4 — technique: RNAcompete; form: RNA; matrix: in vitro; concentration: 20 nM; setting: 7-mer, probes averaged, single round; reference: mean of 7-mers; reading: higher = stronger binding
# Target: PABPC1L2, full length, GST fusion (mouse, UniProt A0ABA7IW68)
Oligonucleotide,7-mer Z-score
CAGACCA,0.155
AUUGUUG,-0.32
UCUUAAU,-0.269
UGCCCUC,-0.324
CUACCAU,-0.184
GAAAGUC,0.162
GAGAUUC,-0.24
GUCUGCA,-0.309

# Block 5 — target: tungstate, free oxyanion; technique: microfluidic competitive inhibition; matrix: in vitro, cell-free expressed; concentration: not given; reading: lower = stronger binding
# Setting: derived from inhibition constants, unchanged parent 2230 nM
# Parent: PafA, mature enzyme, eGFP fusion (Elizabethkingia meningoseptica, UniProt Q9KJX5); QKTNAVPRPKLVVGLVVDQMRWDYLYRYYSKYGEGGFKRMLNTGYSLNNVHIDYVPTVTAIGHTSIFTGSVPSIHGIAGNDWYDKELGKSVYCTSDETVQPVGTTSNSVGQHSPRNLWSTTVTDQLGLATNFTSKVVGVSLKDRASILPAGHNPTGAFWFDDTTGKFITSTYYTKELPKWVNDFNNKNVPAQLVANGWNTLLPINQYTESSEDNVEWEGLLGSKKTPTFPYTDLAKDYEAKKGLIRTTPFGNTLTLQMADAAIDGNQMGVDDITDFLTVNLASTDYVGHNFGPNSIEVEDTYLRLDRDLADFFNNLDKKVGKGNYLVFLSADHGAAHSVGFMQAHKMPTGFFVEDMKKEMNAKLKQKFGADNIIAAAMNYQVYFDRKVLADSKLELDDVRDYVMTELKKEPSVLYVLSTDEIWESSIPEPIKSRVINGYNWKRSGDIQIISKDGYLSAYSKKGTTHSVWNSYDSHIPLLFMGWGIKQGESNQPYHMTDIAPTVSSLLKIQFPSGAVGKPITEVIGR
Substitution,oxyanion analog dissociation constant [nM]
W118V,1680
E354G,1900
Y28G,1100
T121V,1010
Y238G,2110
D161V,1330
P114G,1120
N205V,2620
D371G,1880
R434V,1040
S504G,1930
S425V,2250
L234G,1770
K225V,2270
F312G,1490
V403A,2340
L11V,2000
Q192V,2250
G482A,2710
T226V,2080
I422G,1380
D124G,1200
A282V,78100
P178V,2110
I509V,1910

# For quick reference, copied from above (block 5):
Substitution,oxyanion analog dissociation constant [nM]
I509V,1910
A282V,78100
P114G,1120
W118V,1680
L234G,1770
F312G,1490
